# Published values of several laboratories.
# Compare with care: the assays were run in different laboratories. ± gives the spread as reported.
SMILES,test,test system,conditions,quantity,value
O=C(O)[C@H]1/C(=C/CO)O[C@@H]2CC(=O)N21,population PK model,"human, plasma",oral,absorption rate constant,0.781 h⁻¹
NCC(=O)Nc1cncc(-c2nn3c(=O)cc(N4CCNCC4)nc3s2)c1,population PK model,human,"subcutaneous, geometric mean",absorption rate constant (Ka),0.135 min⁻¹
OC[C@H]1O[C@@H](c2ccc(Cl)c(Cc3ccc(O[C@H]4CCOC4)cc3)c2)[C@H](O)[C@@H](O)[C@@H]1O,population PK model,"human, plasma",oral,absorption rate constant ka,0.196 h⁻¹
COc1ccc(-n2nc(C(N)=O)c3c2C(=O)N(c2ccc(N4CCCCC4=O)cc2)CC3)cc1,,"human, plasma","oral, Full population PK model",absorption rate constant,0.485 ± 0.0204 h⁻¹
CC[C@@H]1CN(C(=O)NCC(F)(F)F)C[C@@H]1c1cnc2cnc3[nH]ccc3n12,population PK modelling,human,"oral, extended-release formulation, outliers re-estimated",absorption rate constant (Ka),0.000722 min⁻¹
NC(=O)c1cnc2[nH]ccc2c1N[C@@H]1[C@@H]2CC3C[C@H]1C[C@@](O)(C3)C2,,"healthy human volunteers, plasma","oral, population PK model, bootstrap median",absorption rate constant,4.99 h⁻¹
C=C[C@@H]1C[C@]1(NC(=O)[C@@H]1C[C@@H](Oc2ncc(OC)c3ccc(Cl)cc23)CN1C(=O)[C@@H](NC(=O)OC(C)(C)C)C(C)(C)C)C(=O)NS(=O)(=O)C1CC1,population PK full model,human,oral,absorption rate constant,0.228 h⁻¹
N#CCNC(=O)c1ccc(-c2ccnc(Nc3ccc(N4CCOCC4)cc3)n2)cc1,"population PK model, NONMEM","human, plasma","oral, typical value, final model",absorption rate constant ka,0.303 h⁻¹
CNC(=O)c1c(C)oc2cc(Oc3ncnc4cc(OC)c(OC)cc34)ccc12,population PK model,human,"oral, added: proton pump inhibitor",absorption rate constant ka,0.99 h⁻¹
C[C@@H]1CCO[C@H]2Cn3cc(C(=O)NCc4ccc(F)cc4F)c(=O)c(O)c3C(=O)N12,population PK model,"paediatric humans, plasma","oral, film-coated tablet",absorption rate constant,0.854 h⁻¹
Cn1cnc2c(F)c(Nc3ccc(Br)cc3Cl)c(C(=O)NOCCO)cc21,population PK model,"human, plasma","oral, zero-order absorption model, fasted",absorption lag time,0.39 h
COc1cc(N2CCC3(CCN(C)CC3)CC2)ccc1Nc1ncc(Cl)c(Nc2ccccc2P(C)(C)=O)n1,population PK model,human,"oral, fed subjects, bootstrap median",absorption lag time,0.473 h
NC(N)=NCCC[C@@H](N)C(=O)N[C@@H](CCCN=C(N)N)C(=O)N1CCC[C@H]1C(=O)N1C[C@H](O)C[C@H]1C(=O)NCC(=O)N[C@@H](Cc1cccs1)C(=O)N[C@@H](CO)C(=O)N1Cc2ccccc2C[C@@H]1C(=O)N1[C@H](C(=O)N[C@@H](CCCN=C(N)N)C(=O)O)C[C@@H]2CCCC[C@@H]21,popPK full model bootstrap median,human,subcutaneous,absorption lag time,0.0428 h
Nc1nc2cccc(-c3ccc(CN4CCS(=O)(=O)CC4)cc3)n2n1,population PK bootstrap median,human,,absorption rate constant,0.478 h⁻¹
NC1(C(=O)N[C@@H](CCO)c2ccc(Cl)cc2)CCN(c2nc[nH]c3nccc2-3)CC1,,human,,absorption rate constant ka,0.441 h⁻¹
NC(=O)N1c2ccccc2CC(=O)c2ccccc21,"population PK, bootstrap median","human patients, plasma",oral,absorption rate constant,0.246 h⁻¹
COC(=O)N[C@H](C(=O)N1CCC[C@H]1c1nc(-c2ccc(-c3ccc(-c4c[nH]c([C@@H]5CCCN5C(=O)[C@@H](NC(=O)OC)C(C)C)n4)cc3)cc2)c[nH]1)C(C)C,,"human, both sexes","oral, popPK base model, one-compartment",absorption rate constant,0.879 h
Cc1cn(-c2cc(NC(=O)c3ccc(C)c(Nc4nccc(-c5cccnc5)n4)c3)cc(C(F)(F)F)c2)cn1,"population PK model, typical value","human, both sexes, plasma",oral,absorption lag time (ALAG1),0.0988 h

# Repeated from above:
SMILES,test,test system,conditions,quantity,value
NC(=O)c1cnc2[nH]ccc2c1N[C@@H]1[C@@H]2CC3C[C@H]1C[C@@](O)(C3)C2,,"healthy human volunteers, plasma","oral, population PK model, bootstrap median",absorption rate constant,4.99 h⁻¹
CNC(=O)c1c(C)oc2cc(Oc3ncnc4cc(OC)c(OC)cc34)ccc12,population PK model,human,"oral, added: proton pump inhibitor",absorption rate constant ka,0.99 h⁻¹
